Assay results of several laboratories.
A part holds a random share of what one study measured.
Sequence of UniProt P22607 (whole entry, looked up): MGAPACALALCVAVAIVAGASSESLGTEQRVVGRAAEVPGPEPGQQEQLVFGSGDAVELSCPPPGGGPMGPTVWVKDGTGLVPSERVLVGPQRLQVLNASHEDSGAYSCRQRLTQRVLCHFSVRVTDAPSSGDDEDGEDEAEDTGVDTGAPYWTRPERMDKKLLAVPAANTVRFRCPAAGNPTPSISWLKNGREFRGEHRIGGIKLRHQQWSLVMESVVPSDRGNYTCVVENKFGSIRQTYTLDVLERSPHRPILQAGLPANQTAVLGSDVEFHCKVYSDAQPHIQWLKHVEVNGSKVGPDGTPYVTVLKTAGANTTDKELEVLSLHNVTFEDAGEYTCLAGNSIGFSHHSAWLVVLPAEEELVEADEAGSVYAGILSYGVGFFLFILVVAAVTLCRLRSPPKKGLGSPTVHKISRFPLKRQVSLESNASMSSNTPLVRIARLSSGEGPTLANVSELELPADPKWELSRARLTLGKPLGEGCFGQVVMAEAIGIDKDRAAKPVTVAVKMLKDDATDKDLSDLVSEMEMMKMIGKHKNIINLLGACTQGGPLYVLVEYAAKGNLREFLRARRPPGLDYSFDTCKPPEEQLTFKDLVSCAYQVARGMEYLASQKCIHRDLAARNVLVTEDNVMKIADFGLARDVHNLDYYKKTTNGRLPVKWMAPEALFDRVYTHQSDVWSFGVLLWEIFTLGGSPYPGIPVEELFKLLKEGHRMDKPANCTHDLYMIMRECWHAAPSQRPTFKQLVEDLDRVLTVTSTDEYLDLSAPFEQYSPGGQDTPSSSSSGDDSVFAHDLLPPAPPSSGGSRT
Sequence of UniProt Q9H4A3 (whole entry, looked up): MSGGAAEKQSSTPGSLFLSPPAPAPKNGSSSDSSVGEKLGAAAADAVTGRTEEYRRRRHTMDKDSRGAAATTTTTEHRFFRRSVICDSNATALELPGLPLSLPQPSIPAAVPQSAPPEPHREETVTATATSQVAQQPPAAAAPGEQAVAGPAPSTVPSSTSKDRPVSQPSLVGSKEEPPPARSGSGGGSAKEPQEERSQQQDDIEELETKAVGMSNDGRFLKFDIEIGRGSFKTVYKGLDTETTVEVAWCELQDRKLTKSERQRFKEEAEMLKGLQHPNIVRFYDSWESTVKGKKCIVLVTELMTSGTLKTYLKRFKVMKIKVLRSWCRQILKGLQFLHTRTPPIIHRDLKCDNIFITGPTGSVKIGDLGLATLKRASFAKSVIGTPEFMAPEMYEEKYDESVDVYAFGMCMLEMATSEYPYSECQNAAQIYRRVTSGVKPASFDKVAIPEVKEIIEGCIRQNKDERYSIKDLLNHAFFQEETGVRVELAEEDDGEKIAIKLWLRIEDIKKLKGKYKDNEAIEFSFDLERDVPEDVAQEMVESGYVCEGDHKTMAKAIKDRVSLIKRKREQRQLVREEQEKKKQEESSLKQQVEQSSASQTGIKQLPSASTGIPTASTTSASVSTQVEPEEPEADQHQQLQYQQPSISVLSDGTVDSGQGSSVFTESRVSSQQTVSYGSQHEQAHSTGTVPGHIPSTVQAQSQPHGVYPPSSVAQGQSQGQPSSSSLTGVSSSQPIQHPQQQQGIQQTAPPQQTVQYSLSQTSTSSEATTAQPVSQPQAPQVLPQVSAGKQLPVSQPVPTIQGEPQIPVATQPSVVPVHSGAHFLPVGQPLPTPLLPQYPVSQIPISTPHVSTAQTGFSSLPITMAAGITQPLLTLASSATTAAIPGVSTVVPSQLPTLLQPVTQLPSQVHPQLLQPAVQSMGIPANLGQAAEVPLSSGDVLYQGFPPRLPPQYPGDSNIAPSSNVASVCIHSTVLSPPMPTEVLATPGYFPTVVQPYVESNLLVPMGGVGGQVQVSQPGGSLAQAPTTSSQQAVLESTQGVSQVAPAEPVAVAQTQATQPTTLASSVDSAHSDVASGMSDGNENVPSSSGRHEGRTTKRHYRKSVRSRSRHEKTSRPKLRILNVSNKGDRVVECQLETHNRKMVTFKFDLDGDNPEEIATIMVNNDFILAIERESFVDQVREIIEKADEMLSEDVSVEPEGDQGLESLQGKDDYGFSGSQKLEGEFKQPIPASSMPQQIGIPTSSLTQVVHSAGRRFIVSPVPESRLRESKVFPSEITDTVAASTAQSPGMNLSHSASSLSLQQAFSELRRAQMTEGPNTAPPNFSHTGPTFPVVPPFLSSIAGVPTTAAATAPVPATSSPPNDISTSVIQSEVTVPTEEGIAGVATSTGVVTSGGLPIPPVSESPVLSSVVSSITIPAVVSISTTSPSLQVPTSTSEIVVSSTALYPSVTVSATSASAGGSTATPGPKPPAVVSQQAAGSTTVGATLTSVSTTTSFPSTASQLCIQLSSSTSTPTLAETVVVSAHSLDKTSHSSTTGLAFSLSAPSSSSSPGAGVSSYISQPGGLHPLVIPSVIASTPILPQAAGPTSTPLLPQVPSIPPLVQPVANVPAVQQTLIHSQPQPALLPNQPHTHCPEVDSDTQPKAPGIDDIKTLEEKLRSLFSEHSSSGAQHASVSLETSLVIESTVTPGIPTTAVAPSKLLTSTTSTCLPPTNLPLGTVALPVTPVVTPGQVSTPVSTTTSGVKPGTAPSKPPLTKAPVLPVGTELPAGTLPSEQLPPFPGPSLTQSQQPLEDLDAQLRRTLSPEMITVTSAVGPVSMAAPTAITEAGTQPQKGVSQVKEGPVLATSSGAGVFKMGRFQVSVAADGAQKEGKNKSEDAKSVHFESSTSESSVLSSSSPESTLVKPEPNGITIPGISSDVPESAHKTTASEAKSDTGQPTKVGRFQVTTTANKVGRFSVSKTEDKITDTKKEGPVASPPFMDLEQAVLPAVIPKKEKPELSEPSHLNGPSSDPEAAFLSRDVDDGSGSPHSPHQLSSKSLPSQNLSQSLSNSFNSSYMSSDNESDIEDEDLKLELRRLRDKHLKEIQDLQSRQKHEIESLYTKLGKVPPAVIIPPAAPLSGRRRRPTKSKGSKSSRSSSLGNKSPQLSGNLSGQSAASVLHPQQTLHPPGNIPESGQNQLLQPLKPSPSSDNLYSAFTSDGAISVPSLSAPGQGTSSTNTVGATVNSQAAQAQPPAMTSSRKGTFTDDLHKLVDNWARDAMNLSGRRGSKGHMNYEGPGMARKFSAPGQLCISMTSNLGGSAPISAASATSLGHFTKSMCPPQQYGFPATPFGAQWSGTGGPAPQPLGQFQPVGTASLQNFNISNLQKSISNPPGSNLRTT
Sequence of UniProt Q15418 (whole entry, looked up): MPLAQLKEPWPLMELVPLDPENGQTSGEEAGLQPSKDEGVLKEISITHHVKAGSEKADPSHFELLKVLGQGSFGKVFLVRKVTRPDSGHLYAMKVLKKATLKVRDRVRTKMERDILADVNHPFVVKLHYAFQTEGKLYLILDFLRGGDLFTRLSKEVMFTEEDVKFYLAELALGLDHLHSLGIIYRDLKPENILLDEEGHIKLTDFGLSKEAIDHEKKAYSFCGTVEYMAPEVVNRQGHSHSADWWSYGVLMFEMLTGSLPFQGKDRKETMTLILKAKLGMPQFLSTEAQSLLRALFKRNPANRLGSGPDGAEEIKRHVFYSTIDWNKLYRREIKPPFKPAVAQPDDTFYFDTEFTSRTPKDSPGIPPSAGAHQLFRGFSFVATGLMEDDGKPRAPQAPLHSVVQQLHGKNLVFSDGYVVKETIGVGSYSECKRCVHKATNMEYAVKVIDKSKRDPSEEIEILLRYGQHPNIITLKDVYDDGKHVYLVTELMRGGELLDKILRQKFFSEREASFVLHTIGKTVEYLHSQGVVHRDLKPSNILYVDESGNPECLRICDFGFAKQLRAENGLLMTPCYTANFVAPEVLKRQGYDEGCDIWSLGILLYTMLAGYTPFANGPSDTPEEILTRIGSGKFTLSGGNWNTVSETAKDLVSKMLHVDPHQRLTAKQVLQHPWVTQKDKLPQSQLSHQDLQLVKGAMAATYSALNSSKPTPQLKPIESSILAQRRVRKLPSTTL
Sequence of UniProt P42685 (whole entry, looked up): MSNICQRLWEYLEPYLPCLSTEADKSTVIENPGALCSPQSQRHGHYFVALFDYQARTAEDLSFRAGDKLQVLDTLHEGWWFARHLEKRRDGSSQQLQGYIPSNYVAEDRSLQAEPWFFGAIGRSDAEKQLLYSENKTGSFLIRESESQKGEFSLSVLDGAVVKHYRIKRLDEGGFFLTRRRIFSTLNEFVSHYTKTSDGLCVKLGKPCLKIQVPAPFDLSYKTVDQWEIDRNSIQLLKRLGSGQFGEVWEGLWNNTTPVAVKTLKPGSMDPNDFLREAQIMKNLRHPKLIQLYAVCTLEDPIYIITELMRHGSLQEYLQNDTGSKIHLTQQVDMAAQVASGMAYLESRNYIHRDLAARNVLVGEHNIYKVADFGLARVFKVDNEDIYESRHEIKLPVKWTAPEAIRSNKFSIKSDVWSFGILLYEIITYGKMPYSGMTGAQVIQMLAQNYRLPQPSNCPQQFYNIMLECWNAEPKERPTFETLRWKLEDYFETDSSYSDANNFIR
Sequence of UniProt O75716 (whole entry, looked up): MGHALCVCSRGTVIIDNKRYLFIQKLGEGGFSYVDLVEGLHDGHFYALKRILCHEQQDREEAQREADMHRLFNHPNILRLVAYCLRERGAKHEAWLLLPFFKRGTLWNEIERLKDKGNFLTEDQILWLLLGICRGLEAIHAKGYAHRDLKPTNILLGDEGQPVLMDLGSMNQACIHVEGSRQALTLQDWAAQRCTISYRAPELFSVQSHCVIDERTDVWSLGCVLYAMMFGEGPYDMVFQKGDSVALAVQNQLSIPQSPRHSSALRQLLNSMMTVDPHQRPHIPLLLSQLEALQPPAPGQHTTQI
Sequence of UniProt P51817 (whole entry, looked up): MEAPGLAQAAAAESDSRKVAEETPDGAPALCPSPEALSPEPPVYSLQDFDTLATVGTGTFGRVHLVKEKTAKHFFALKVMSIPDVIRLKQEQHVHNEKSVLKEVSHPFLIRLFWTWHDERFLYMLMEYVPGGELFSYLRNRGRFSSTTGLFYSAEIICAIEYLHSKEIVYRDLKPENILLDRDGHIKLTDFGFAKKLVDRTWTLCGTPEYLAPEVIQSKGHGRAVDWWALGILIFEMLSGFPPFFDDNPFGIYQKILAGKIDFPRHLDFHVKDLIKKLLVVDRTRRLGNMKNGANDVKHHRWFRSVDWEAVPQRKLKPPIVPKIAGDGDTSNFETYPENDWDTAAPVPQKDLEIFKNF

Sample 1 — observed: cell-free assay; technique: competition with immobilised ligand; tested at: 1 µM
Compound: COc1ccc2c(O[C@@H]3C[C@H]4C(=O)N[C@]5(C(=O)O)CC5/C=C\CCCCC[C@H](NC(=O)OC5CCCC5)C(=O)N4C3)cc(-c3csc(NC(=O)C(C)C)n3)nc2c1C (some centres unmarked)
The remaining binding was 100% (CDK18 (Homo sapiens, UniProt Q07002)).
It gave 77% for remaining binding (DYRK2 (Homo sapiens, UniProt Q92630)).
It gave 100% for remaining binding (PRKCQ (Homo sapiens, UniProt Q04759)).
The remaining binding was 94% (Insulin receptor (INSR, Homo sapiens, UniProt P06213)).
The remaining binding was 91% (MUSK (Homo sapiens, UniProt O15146)).
MYLK3 (Homo sapiens, UniProt Q32MK0) — remaining binding: 100%.
For FGFR3 (Homo sapiens, UniProt P22607): remaining binding read 100%.
For eIF-2-alpha kinase GCN2, C-terminal kinase domain (EIF2AK4, Homo sapiens, UniProt Q9P2K8, S808G): remaining binding read 100%.
For FRK (Homo sapiens, UniProt P42685): remaining binding read 100%.
The remaining binding was 89% (PIP4K2C (Homo sapiens, UniProt Q8TBX8)).
For PIK3CA (Homo sapiens, UniProt P42336, I800L): remaining binding read 65%.
The remaining binding was 100% (PIP5K1C (Homo sapiens, UniProt O60331)).
The remaining binding was 100% (WNK1 (Homo sapiens, UniProt Q9H4A3)).
MAP3K12 (Homo sapiens, UniProt Q12852) — remaining binding: 92%.
The remaining binding was 96% (PRKCI (Homo sapiens, UniProt P41743)).

Sample 2 — Compound: O=C1NC(=O)c2c1c1c3ccccc3[nH]c1n1cncc21; observed: enzyme activity; mode: inhibitor; tested at: 0.5 µM; baseline: control
It gave 75.7% for remaining activity (SRPK3 (Homo sapiens, UniProt Q9UPE1)).
GRK6 (Homo sapiens, UniProt P43250) — remaining activity: 82.1%.
It gave 117% for remaining activity (PRKCG (Homo sapiens, UniProt P05129)).
The remaining activity was 31.1% (RPS6KA1 (Homo sapiens, UniProt Q15418)).
For PAK2 (Homo sapiens, UniProt Q13177): remaining activity read 99%.
It gave 78.6% for remaining activity (FGFR4 (Homo sapiens, UniProt P22455)).
BMX (Homo sapiens, UniProt P51813) — remaining activity: 91.7%.
The remaining activity was 86.1% (EPHB2 (Homo sapiens, UniProt P29323)).
For CSF1R (Homo sapiens, UniProt P07333): remaining activity read 64.9%.
The remaining activity was 10.4% (GSK3A (Homo sapiens, UniProt P49840)).
For PRKCE (Homo sapiens, UniProt Q02156): remaining activity read 84.9%.
SGK1 (Homo sapiens, UniProt O00141) — remaining activity: 69%.
It gave 107% for remaining activity (GRK2 (Homo sapiens, UniProt P25098)).

Sample 3 — host: human; medium: microsomes or S9; tested at: 2 µM; time: 0.5 h
`CCCn1ncc(N2CCC(C(=O)N3CCN(CCOc4ccc(Cl)cc4)CC3)CC2)cc1=O` gave a remaining compound of 72.9%.
`COc1ccc2ccccc2c1-c1cc(Cn2c(C)c(C)ncc2=O)on1` gave a remaining compound of 3.58%.
The remaining compound of `O=C1CCCc2sc(CN3CCOCC3)cc21` is reported as 95.2%.
The remaining compound of `CCOC1CC(OC(=O)c2csc(-c3ccco3)n2)C12CCC2` (centres unmarked) is reported as 0.0164%.
`Cc1cccc(-n2ccnc2S(=O)(=O)C(C)C(=O)N(C(C)C)C(C)C)c1` (centres unmarked) gave a remaining compound of 0.0725%.
`Cc1nn(C)cc1-c1cc(-c2cn(C)nc2C)n(CC(=O)N(C)Cc2ccn(C)n2)n1` gave a remaining compound of > 100%.
For `Cn1cc(-c2ccc(=O)n(CC3CN(c4ncc(OCCN5CCCC5)cn4)CCO3)n2)cn1` (centres unmarked), the remaining compound was 97.9%.
With `CCN(CC)CCCC(C)NCc1c(C)nn(-c2ccc(F)cc2)c1C` (centres unmarked) the remaining compound was 68.8%.
With `Cc1c(S(=O)(=O)N2CCN(CC(=O)NCc3ccccc3)S(=O)(=O)CC2)sc2ccc(Cl)cc12` the remaining compound was 5.36%.
With `COC(=O)c1cc(N)c2c(c1)Oc1ccccc1O2` the remaining compound was 0%.
`Cc1c(CC(=O)O)c2c(n1-c1ccc(Br)cc1)CC(C)(C)CC2=O` gave a remaining compound of 61.9%.

Sample 4 — tested at: 5 µM
Structure (SMILES): O=C(Nc1cnn(-c2csc(C(=O)NC3COC3)c2)c1)Nc1c(F)cccc1Cl
It gave 92.4% for remaining activity (PDGFRB (Homo sapiens, UniProt P09619); enzyme activity; baseline: untreated control).
For PRKX (Homo sapiens, UniProt P51817); enzyme activity; baseline: untreated control: remaining activity read 88.1%.
STK38L (Homo sapiens, UniProt Q9Y2H1); enzyme activity; baseline: untreated control — remaining activity: 93%.
It gave 91.9% for remaining activity (KSR2 (Homo sapiens, UniProt Q6VAB6); enzyme activity; baseline: untreated control).
The remaining activity was 91.2% (CSNK1G3 (Homo sapiens, UniProt Q9Y6M4); enzyme activity; baseline: untreated control).
For STK16 (Homo sapiens, UniProt O75716); enzyme activity; baseline: untreated control: remaining activity read 100%.
The remaining activity was 91.7% (CAMK1G (Homo sapiens, UniProt Q96NX5); enzyme activity; baseline: untreated control).
For TAOK2 (Homo sapiens, UniProt Q9UL54); kinase activity, kinase panel profiling: remaining activity read 88.2%.
NTRK2 (Homo sapiens, UniProt Q16620); enzyme activity; baseline: untreated control — remaining activity: 88.2%.
For FGFR3 (Homo sapiens, UniProt P22607); enzyme activity; baseline: untreated control: remaining activity read 91%.
For MAP3K11 (Homo sapiens, UniProt Q16584); enzyme activity; baseline: untreated control: remaining activity read 83.4%.

A few entries again (sample 2):
For CSF1R (Homo sapiens, UniProt P07333): remaining activity read 64.9%.
The remaining activity was 10.4% (GSK3A (Homo sapiens, UniProt P49840)).
For PRKCE (Homo sapiens, UniProt Q02156): remaining activity read 84.9%.
SGK1 (Homo sapiens, UniProt O00141) — remaining activity: 69%.
It gave 107% for remaining activity (GRK2 (Homo sapiens, UniProt P25098)).
